Experimental data collected from several papers.
Compare with care: the assays were run in different laboratories. “And” joins repeats or separate records; there may be more than shown. ± marks the error that the study gave.

Compound | target or system | test | test system | setting | how to read | measurement | value
Cc1ccc(OCC(=O)N(Cc2cccs2)c2ccn[nH]2)cc1 |  | micronucleus | CD-1 mouse Crl:CD-1(ICR), female, bone marrow | oral, 1500 mg/kg/day, 3 days |  | PCE to total erythrocyte ratio | 0.62 ± 0.07
CC[C@H](C)[C@H](NC(=O)CN)C(=O)N[C@@H](CCCNC(=N)N)C(=O)N[C@@H](CCCCN)C(=O)N[C@@H](Cc1c[nH]c2ccccc12)C(=O)N[C@@H](Cc1ccccc1)C(=O)N[C@@H](CCCCN)C(=O)N[C@@H](CCCCN)C(=O)N[C@@H](C)C(=O)N[C@@H](C)C(=O)N[C@@H](Cc1c[nH]cn1)C(=O)N[C@H](C(=O)NCC(=O)N[C@@H](CCCCN)C(=O)N[C@@H](CCC(=O)O)C(=O)N[C@H](C(=O)NCC(=O)N[C@@H](CCCCN)C(=O)N[C@H](C(=O)N[C@@H](C)C(=O)N[C@@H](CC(C)C)C(=O)N[C@@H](CC(N)=O)C(=O)N[C@@H](C)C(=O)N[C@@H](CS)C(=O)N[C@@H](CC(C)C)C(=O)O)C(C)C)C(C)C)C(C)C |  |  | zebrafish embryos 4 hpf, E3 medium | 1 h |  | acute toxic concentration | 5 µM
O=C1NC2(CC2)COc2ncc(F)cc2[C@H]2COCCN2c2ccn3ncc1c3n2 |  |  | Sprague-Dawley rat, male, kidneys | oral, 2.5 mg/kg/day, 4 weeks dosing, end of recovery |  | organ-to-brain weight ratio | 150 ± 14.4%
N#[11C]c1ccc(-c2csc(NN=C3CCCC3)n2)cc1 |  |  | C57BL/6 mice, male, kidney | intravenous, 3 MBq, 5 min |  | radioactivity uptake | 10.7 ± 1.1 %ID/g
Cc1ccc(OCCN(C)C)cc1C(=O)N[C@H](C)c1cc(-c2cnn(CC(=O)N(C)C)c2)nc2ccccc12 | African green monkey cells |  |  | 250 µM |  | viability | 103%
CC(=O)NCCCC[C@@H]1NC(=O)[C@H](Cc2c[nH]c3c(C)cccc23)NC(=O)[C@H]([C@@H](C)O)NC(=O)[C@H](CC(N)=O)NC(=O)[C@@H](NC(C)=O)C(C)(C)SSC(C)(C)[C@@H](C(=O)N[C@@H](Cc2ccc(OCCN)cc2)C(=O)N[C@@H](Cc2ccc3ccccc3c2)C(=O)NC2(C(=O)N[C@@H](CCC(=O)O)C(=O)N[C@@H](CC(N)=O)C(=O)N[C@@H](Cc3cccnc3)C(=O)N(C)CC(N)=O)CCOCC2)NC1=O |  | equilibrium dialysis | albumin plus glycoprotein | 1 µM, albumin 4%, glycoprotein 0.07% |  | protein binding | 37.1 ± 3.7%
Cc1ccc(OCCN(C)C)cc1C(=O)N[C@H](C)c1cc(-c2ccc(C#N)nc2)nc2ccccc12 | Vero E6 |  |  | 125 µM |  | viability | -0.6% and 0.2%
CC[C@H](C)[C@H](NC(=O)[C@H](CCCCN)NC(=O)CNC(=O)[C@H](CC(C)C)NC(=O)[C@H](Cc1ccccc1)NC(=O)[C@H](CCCCN)NC(=O)[C@H](CO)NC(=O)[C@H](Cc1ccccc1)NC(=O)[C@H](Cc1c[nH]c2ccccc12)NC(=O)[C@H](CCC(N)=O)NC(=O)[C@@H](NC(=O)[C@H](Cc1ccccc1)NC(=O)CCCCCNC(=O)CN1CCN(CC(=O)O)CCN(CC(=O)O)CCN(CC(=O)O)CC1)C(C)C)C(=O)N[C@@H](CCC(=O)O)C(=O)N1CCC[C@H]1C(=O)N[C@@H](CC(=O)O)C(=O)N[C@H](C(=O)N[C@@H](CO)C(=O)N[C@@H](CCC(N)=O)C(=O)N[C@H](C(=O)N[C@@H](CCC(N)=O)C(=O)N[C@@H](CC(=O)O)C(=O)N1CCC[C@H]1C(=O)N[C@@H](CC(N)=O)C(=O)N[C@@H](CC(=O)O)C(=O)N[C@@H](CCC(N)=O)C(=O)N[C@@H](Cc1ccc(O)cc1)C(=O)N[C@@H](CCC(=O)O)C(=O)N1CCC[C@H]1C(=O)N[C@@H](Cc1ccccc1)C(=O)O)C(C)C)C(C)C [copper-64 labelled] |  |  | BALB/c mice, male, CT26 tumour-bearing, heart | 2 h, anti-PD1 plus anti-CTLA4 treated |  | tissue uptake | 1.32 ± 0.4 %ID/g
CCN(CCCCOc1ccc(CCC(=O)N2CCC(Cc3ccccc3)CC2)cc1OC)Cc1ccccc1 |  |  | Sprague-Dawley rats, both sexes, faeces | oral gavage, 25 mg/kg, 24 to 48 h |  | excreted amount | 50800 ± 4570 ng
CC(C)[C@@H]1NC(=O)CNC(=O)[C@H](CC(N)=O)NC(=O)[C@H](CCCNC(=N)N)NC(=O)[C@H](Cc2ccc(O)cc2)NC(=O)[C@H](C(C)C)NC(=O)[C@@H](NC(=O)[C@@H](NC(=O)[C@H](CC(N)=O)NC(=O)[C@H](Cc2c[nH]c3ccccc23)NC(=O)[C@H](C)NC(=O)[C@H](Cc2ccccc2)NC(=O)CNC(=O)[C@H](CCCCN)NC(=O)[C@H](Cc2ccccc2)NC(=O)[C@H](Cc2ccccc2)NC(=O)[C@H](CCCCN)NC(=O)OCC2c3ccccc3-c3ccccc32)C(C)C)CSSC[C@@H](C(=O)N[C@@H](Cc2c[nH]cn2)C(=O)N[C@@H](CCCNC(=N)N)C(=O)N[C@@H](CCCNC(=N)N)C(=O)N[C@@H](C)C(=O)N[C@@H](CC(N)=O)C(N)=O)NC(=O)[C@H](C(C)C)NC(=O)[C@H](CCCNC(=N)N)NC1=O |  | HPLC | trypsin buffer | 6.00 h, 37 °C, added: trypsin 1 % w/v |  | peptide remaining | 36.9% and 38.7% and 43.8%
CN1Cc2cc(Cl)ccc2-n2c(nnc2C2CCN(c3cccc([18F])n3)CC2)C1 |  | PET two-tissue compartment model | rhesus monkey, occipital cortex | intravenous, dose not given, 80 min scan, baseline scan |  | total volume of distribution | 0.97 ± 0.36 mL/cm3
NC1CCN(C(=O)Oc2ccc(C3CCCC4(C3)OOC3(O4)C4CC5CC(C4)CC3C5)cc2)CC1 (racemic) |  |  | male ICR mice, plasma | oral, 50 mg/kg |  | half-life | 7.12 h
C/C(=N\OCCCN1CCCCC1)c1ccc(C(F)(F)F)cc1 |  |  | C57BL/6 mouse, brain | oral, 10 mg/kg, 4 h |  | brain concentration | 2610 ± 285 ng/g
CC(C)(CCCC/C=C/CCCCCC(C)(C)C(=O)O)C(=O)O |  |  | ICR mice, both sexes | oral, dose not given, 1 h |  | plasma concentration | 18900 ng/mL
CSCC[C@H](N)C(=O)N[C@@H](C)C(=O)N[C@@H](Cc1c[nH]c2ccccc12)C(=O)N[C@@H](Cc1c[nH]cn1)C(=O)N[C@@H](CC(=O)O)C(=O)N[C@@H](CC(=O)O)C(=O)N[C@@H](CCC(=O)O)C(=O)N[C@@H](CCC(=O)O)C(=O)N[C@@H](Cc1ccccc1)C(=O)N[C@@H](C)C(=O)N[C@@H](CCCNC(=N)N)C(=O)N[C@@H](CCCNC(=N)N)C(=O)N[C@@H](CCCNC(=N)N)C(=O)N[C@@H](CCCNC(=N)N)C(=O)NCCCCCC(=O)NCCCCC(NC(=O)CCCCCNC(=O)[C@H](CCCNC(=N)N)NC(=O)[C@H](CCCNC(=N)N)NC(=O)[C@H](CCCNC(=N)N)NC(=O)[C@H](CCCNC(=N)N)NC(=O)[C@H](C)NC(=O)[C@H](Cc1ccccc1)NC(=O)[C@H](CCC(=O)O)NC(=O)[C@H](CCC(=O)O)NC(=O)[C@H](CC(=O)O)NC(=O)[C@H](CC(=O)O)NC(=O)[C@H](Cc1c[nH]cn1)NC(=O)[C@H](Cc1c[nH]c2ccccc12)NC(=O)[C@H](C)NC(=O)[C@@H](N)CCSC)C(=O)NCCCCC(NC(=O)C(CCCCNC(=O)CCCCCNC(=O)[C@H](CCCNC(=N)N)NC(=O)[C@H](CCCNC(=N)N)NC(=O)[C@H](CCCNC(=N)N)NC(=O)[C@H](CCCNC(=N)N)NC(=O)[C@H](C)NC(=O)[C@H](Cc1ccccc1)NC(=O)[C@H](CCC(=O)O)NC(=O)[C@H](CCC(=O)O)NC(=O)[C@H](CC(=O)O)NC(=O)[C@H](CC(=O)O)NC(=O)[C@H](Cc1c[nH]cn1)NC(=O)[C@H](Cc1c[nH]c2ccccc12)NC(=O)[C@H](C)NC(=O)[C@@H](N)CCSC)NC(=O)CCCCCNC(=O)[C@H](CCCNC(=N)N)NC(=O)[C@H](CCCNC(=N)N)NC(=O)[C@H](CCCNC(=N)N)NC(=O)[C@H](CCCNC(=N)N)NC(=O)[C@H](C)NC(=O)[C@H](Cc1ccccc1)NC(=O)[C@H](CCC(=O)O)NC(=O)[C@H](CCC(=O)O)NC(=O)[C@H](CC(=O)O)NC(=O)[C@H](CC(=O)O)NC(=O)[C@H](Cc1c[nH]cn1)NC(=O)[C@H](Cc1c[nH]c2ccccc12)NC(=O)[C@H](C)NC(=O)[C@@H](N)CCSC)C(N)=O (stereo partly drawn) |  |  | C57BL/6 mouse female, pancreas | dose not given, 6 h | relative to: total | mean tissue distribution | 0.78%
